Measured values from different studies.
Every numbered part comes from another study and shows a few of its results, in no order.

Study 1
Target: Ras GTPase-activating protein-binding protein 1, full length (G3BP1, Homo sapiens, UniProt Q13283)
UniProt Q13283, sequence (whole entry, looked up): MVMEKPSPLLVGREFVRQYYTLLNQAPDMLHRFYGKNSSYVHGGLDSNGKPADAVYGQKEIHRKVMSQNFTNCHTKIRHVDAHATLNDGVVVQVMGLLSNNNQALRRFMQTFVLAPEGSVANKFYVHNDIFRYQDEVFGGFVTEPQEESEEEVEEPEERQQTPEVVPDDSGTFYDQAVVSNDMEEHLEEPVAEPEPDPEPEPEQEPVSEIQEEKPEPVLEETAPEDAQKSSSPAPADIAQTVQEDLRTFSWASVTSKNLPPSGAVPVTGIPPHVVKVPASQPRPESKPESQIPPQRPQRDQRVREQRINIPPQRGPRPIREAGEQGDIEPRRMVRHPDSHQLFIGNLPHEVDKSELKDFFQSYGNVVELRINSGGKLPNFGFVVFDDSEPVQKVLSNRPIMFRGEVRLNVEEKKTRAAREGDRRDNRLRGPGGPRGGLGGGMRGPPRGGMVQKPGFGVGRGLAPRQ
Method: RNA Bind-n-Seq
Form: RNA
Medium: in vitro
Tested at: 200 nM
Setting: whole 134-nt RNA, ends assumed
With: 150 mM KCl
Reference: input library
Reading: higher = stronger binding
Endpoint: log2 enrichment
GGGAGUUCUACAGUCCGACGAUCCACAGACAACACGCACCCACACAGACACAGAGGGAAGGGGUUGAGAUGGGGACAGGGUGCACAGCAGGGCGGGGUAGGACCCCAGCCCCUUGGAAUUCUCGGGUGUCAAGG: 1.53
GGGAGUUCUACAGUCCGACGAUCAAGUCCUGUGCUACACAUCGUAUGUACCGAAUCGGGCCCCGGGGCCCCGGCCCCGGGAAAGUAUUAUGUUACGCCGUUCGGAUCUGCACUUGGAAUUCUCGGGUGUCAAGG: -0.792
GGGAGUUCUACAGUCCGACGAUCCCUCAAGUCCUGUGCUACACAUCGUAUGUACCGAAUCGGGGUUGGUUGGUUGGAAAGUAUUAUGUUACGCCGUUCGGAUCUGCACUUCCAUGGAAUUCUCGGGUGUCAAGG: 0.0688
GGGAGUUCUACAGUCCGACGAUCAGUCCUGUGCUACACAUCGUAUGUACCGAAUCAAACCCCCCCAAACCCAAACCCAAAAAAGUAUUAUGUUACGCCGUUCGGAUCUGCACUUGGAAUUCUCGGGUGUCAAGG: -0.389
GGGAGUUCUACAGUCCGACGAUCUUUGAAGGUGAUUUCUGGCCCAAUGUGUUAGAAGAGAGCAUUAAGGAACUAGAACAAGAAGAAGAGGAGAGGAAAAAGGAAGAGAGCACUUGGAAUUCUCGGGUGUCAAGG: -0.247
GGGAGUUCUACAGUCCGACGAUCUCAAGUCCUGUGCUACACAUCGUAUGUACCGAAUCGGGUUUGGGUUUGGGUUUGGAAAGUAUUAUGUUACGCCGUUCGGAUCUGCACUUCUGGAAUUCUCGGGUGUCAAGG: -0.573
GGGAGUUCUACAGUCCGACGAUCCCUGUGCUACACAUCGUAUGUACCGAAUCGGCCCCCCCGGGCCCCCCCGGGCCCCCCCGGGAAAGUAUUAUGUUACGCCGUUCGGAUCUGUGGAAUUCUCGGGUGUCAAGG: -0.6
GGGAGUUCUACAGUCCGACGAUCCAAGUCCUGUGCUACACAUCGUAUGUACCGAAUCGGUUUUUUUGGUUUUUGGUGGAAAGUAUUAUGUUACGCCGUUCGGAUCUGCACUUCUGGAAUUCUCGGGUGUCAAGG: -1
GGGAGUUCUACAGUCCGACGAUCUCAAGUCCUGUGCUACACAUCGUAUGUACCGAAUCGGCCCGGCCCGGGCCCGGGAAAGUAUUAUGUUACGCCGUUCGGAUCUGCACUUCCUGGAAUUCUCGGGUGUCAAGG: -0.593
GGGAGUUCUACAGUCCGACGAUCGUCCUGUGCUACACAUCGUAUGUACCGAAUCGGGUUUUUGGGAAAAAGGGUUUUUGGGAAAGUAUUAUGUUACGCCGUUCGGAUCUGCACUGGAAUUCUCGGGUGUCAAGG: -0.591

Study 2
Target: Centromere-binding protein 1, full length, N-terminal tag (CBF1, Saccharomyces cerevisiae, UniProt P17106, residues 1-351)
UniProt P17106, sequence (whole entry, looked up): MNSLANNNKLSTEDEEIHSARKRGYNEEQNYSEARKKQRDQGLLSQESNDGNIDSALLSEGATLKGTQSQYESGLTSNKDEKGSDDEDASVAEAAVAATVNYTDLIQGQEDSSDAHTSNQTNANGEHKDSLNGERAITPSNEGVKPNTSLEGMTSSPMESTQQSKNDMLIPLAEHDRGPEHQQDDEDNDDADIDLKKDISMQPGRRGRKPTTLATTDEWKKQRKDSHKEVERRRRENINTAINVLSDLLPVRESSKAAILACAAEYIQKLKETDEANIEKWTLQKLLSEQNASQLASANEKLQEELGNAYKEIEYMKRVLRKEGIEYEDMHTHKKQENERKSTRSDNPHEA
Method: protein-binding microarray
Form: double-stranded DNA, one strand shown
Medium: in vitro
Tested at: 0.8 µM
Setting: whole 60-bp probe, no competitor
Reading: higher = stronger binding
Endpoint: fluorescence intensity
GAAAATGGATATATACATGTGGTACTATTTCTCTAGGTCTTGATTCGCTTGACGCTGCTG: 696 a.u.
GAATGGTTTACAAATCACCAGTGCAAAAACAGATAGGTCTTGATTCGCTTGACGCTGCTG: 574 a.u.
CTAGTGCCATCCGGTCACATGACTACACCACGTTTCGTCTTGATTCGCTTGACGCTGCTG: 11800 a.u.
CTATCTCAAAACAGTGCACGTGCACCCATGGCATTCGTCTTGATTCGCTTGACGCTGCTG: 13100 a.u.
GAATGTTGCTTTAGTGATGATGTGAGCTTAGTGTAGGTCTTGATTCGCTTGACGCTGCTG: 544 a.u.
CTATTATTTCTTGTGGTCATTTATTGCTTTTATTTCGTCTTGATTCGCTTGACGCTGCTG: 582 a.u.
GAAAAAATTGAGAGTGATGTCGCTTTAACTTGATAGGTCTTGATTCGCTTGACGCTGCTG: 463 a.u.
GAATTCTCGCCATAATCGCTGATGTCAAAAATTTAGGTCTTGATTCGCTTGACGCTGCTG: 539 a.u.
CTAAGAATGCTATATCTGATGATTAAAAATAGCTTCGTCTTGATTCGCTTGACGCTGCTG: 549 a.u.
TGTACGAAGCTATGTGATCTGCTTATAGTAGTTAGGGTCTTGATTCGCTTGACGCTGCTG: 538 a.u.
CTAAAGTCTGGTATTAGCATCAGGTATACTTTATTCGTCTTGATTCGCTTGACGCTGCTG: 507 a.u.
CTATTATAATGAAACCACGTGAGCACGATGAAATTCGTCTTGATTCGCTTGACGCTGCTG: 7320 a.u.
GAAAACCCTAAGAAGCACGTGATACAAACCTGTTAGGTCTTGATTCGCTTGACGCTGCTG: 13200 a.u.
GAATCTCTCTCTGATGACGTGATATCTTTTATGTAGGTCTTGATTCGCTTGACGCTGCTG: 792 a.u.
GAAGTCCTTTAATCTCAGCTGATATCGTCCTTCTAGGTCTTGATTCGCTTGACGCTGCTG: 581 a.u.
GAAGGAGAAAATAAACGCGTGAGCAGTAGCTGATAGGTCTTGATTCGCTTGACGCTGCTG: 599 a.u.
CTAGCAGTGTCGTCGTACGTGATGAGGGCAGGCTTCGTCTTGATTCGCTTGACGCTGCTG: 528 a.u.
CCTAACTACTATAGTGTGATGTCATAGCTTCGTACAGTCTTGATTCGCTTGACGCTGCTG: 579 a.u.

Study 3
Target: RNA binding protein fox-1 homolog 2, RRM domain, GST-SBP tag (RBFOX2, Homo sapiens, UniProt O43251-10, residues 100-194)
Method: RNA Bind-n-Seq
Form: RNA
Medium: in vitro
Tested at: 365 nM
Setting: natural RNA segment, single round, ends assumed
Reference: no-protein control
Reading: higher = stronger binding
Endpoint: RBNS enrichment (R)
Target sequence (chain): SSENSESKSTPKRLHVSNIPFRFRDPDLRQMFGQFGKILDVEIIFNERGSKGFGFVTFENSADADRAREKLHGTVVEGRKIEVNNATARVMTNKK
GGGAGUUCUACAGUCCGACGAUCUGGGGCUCAGCCACAGCCUGACACAGUGCUCGACCUUGAUAGCAUGGGGCCCCUGGCCCAGAGUUGCUGUGCCGUGUCCAAGGGCCGUGCCCUUGCCCUUGGAGCUGCCGUGGAAUUCUCGGGUGCCAA: 15.7
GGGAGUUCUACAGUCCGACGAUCAAUAAUUUUUCCCUAAUGAUACCACUUUUCUUUUCCCCCUGUACCUAUGGGACUUCCAGAAAGAAGUUAAAUUGAGUAAAAUCAUCAGAAACUGAAUCCAUGUAAGAAAAUGGAAUUCUCGGGUGCCAA: 0.569
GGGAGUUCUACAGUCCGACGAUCUGUCCUUGCGGCCCUGUCUUCUGAGGUUCUCUGUCUGGGGUUGGCUCUCUUAACCCUUUCUCUGCUCCCAGCCUGCCUCACCAGGGAAGGUUGGAGGGGCCUCCCUCUGGUGGAAUUCUCGGGUGCCAA: 0.658
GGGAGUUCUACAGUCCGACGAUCUGACCAAGCAAAGACAUGCUUGUUACAGGCUAUUUUCUAUAUUUAUUGUGGGAGAGUCACUUUAAAGACUGUGCUAGUUGGAAACAGAGCUGUUGCUGUUGUCAGUCGAGUGGAAUUCUCGGGUGCCAA: 0.36
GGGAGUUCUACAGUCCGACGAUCAGCCACUCUGCCCACUAAAGUGCCCCACCAUGAAACAUUCUGGAGUUGGCCAUCCCAAAUUUCAUCGGUCCAUAGACACAAGCACAGAGCAAGAAACAAGGGCCUUAGAUUGGAAUUCUCGGGUGCCAA: 0.688
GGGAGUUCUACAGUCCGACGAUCCACACCAGAGGUUGUAGACCUAUAUCUGGUAUCCAGAACCUGACAGGGAAACAGUUCUUGGUCCCCCUUUUUUGGGGUCAGCAUUUUAAAAAUGCAAAGCCUAUAUGUUGUGGAAUUCUCGGGUGCCAA: 0.389

Study 4
Target: Prothrombin, mature alpha-thrombin (F2, Homo sapiens, UniProt P00734)
Method: aptamer microarray, sandwich
Form: DNA with 2'F-ANA
Medium: in vitro
Tested at: 200 nM
Setting: whole 15-mer aptamer, many near background
With: Cy3 exosite-II aptamer, 400 nM
Reading: higher = stronger binding
Endpoint: mean fluorescence intensity
Sequence: GGTTGGTGTGGTTGG
2'F-ANA at 1 2 3 6 8 10 11: 62.9 a.u.
2'F-ANA at 5 6 10 11 12 13 15: 50.4 a.u.
2'F-ANA at 1 2 3 4 6 10 11 12 14 15: 50.7 a.u.
2'F-ANA at 2 3 7 9 10 12 13: 420 a.u.
2'F-ANA at 3 5 7 9 11 12 13 15: 144 a.u.
2'F-ANA at 2 3 6 7 8 11 12 13 14: 431 a.u.
2'F-ANA at 1 3 6 8 10 11 12 14 15: 60.2 a.u.
2'F-ANA at 1 3 6 9 10 11 12 15: 94.7 a.u.
2'F-ANA at 4 6 7 9 13: 151 a.u.
2'F-ANA at 2 3 4 9 10 11 14: 178 a.u.
2'F-ANA at 4 5 6 10 11: 45.1 a.u.
2'F-ANA at 1 3 8 10 11 12 14: 119 a.u.
2'F-ANA at 1 6 8 15: 246 a.u.
2'F-ANA at 2 3 4 5 6 8 9 10: 55.2 a.u.
2'F-ANA at 1 4 10 12: 60 a.u.
2'F-ANA at 1 4 7 8 10 12 14: 75.2 a.u.
2'F-ANA at 1 2 4 5 6 7 8 9 12 15: 108 a.u.
2'F-ANA at 1 3 5 7 9 10 12: 49.8 a.u.
2'F-ANA at 3 4 5 7 9 10 11 12: 56.1 a.u.
2'F-ANA at 1 2 3 4 9 12 15: 375 a.u.
2'F-ANA at 1 2 4 8 9 10 13 14 15: 50.2 a.u.
2'F-ANA at 2 3 4 5 9 11 12 14: 51.3 a.u.
2'F-ANA at 1 2 3 4 6 10 11 13 14 15: 63.7 a.u.
2'F-ANA at 2 3 5 10 11 12 13 14: 51.6 a.u.

Repeated from above (study 3):
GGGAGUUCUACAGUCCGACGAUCUGGGGCUCAGCCACAGCCUGACACAGUGCUCGACCUUGAUAGCAUGGGGCCCCUGGCCCAGAGUUGCUGUGCCGUGUCCAAGGGCCGUGCCCUUGCCCUUGGAGCUGCCGUGGAAUUCUCGGGUGCCAA: 15.7
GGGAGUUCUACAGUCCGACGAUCAAUAAUUUUUCCCUAAUGAUACCACUUUUCUUUUCCCCCUGUACCUAUGGGACUUCCAGAAAGAAGUUAAAUUGAGUAAAAUCAUCAGAAACUGAAUCCAUGUAAGAAAAUGGAAUUCUCGGGUGCCAA: 0.569
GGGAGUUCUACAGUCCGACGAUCUGUCCUUGCGGCCCUGUCUUCUGAGGUUCUCUGUCUGGGGUUGGCUCUCUUAACCCUUUCUCUGCUCCCAGCCUGCCUCACCAGGGAAGGUUGGAGGGGCCUCCCUCUGGUGGAAUUCUCGGGUGCCAA: 0.658
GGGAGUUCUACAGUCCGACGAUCUGACCAAGCAAAGACAUGCUUGUUACAGGCUAUUUUCUAUAUUUAUUGUGGGAGAGUCACUUUAAAGACUGUGCUAGUUGGAAACAGAGCUGUUGCUGUUGUCAGUCGAGUGGAAUUCUCGGGUGCCAA: 0.36
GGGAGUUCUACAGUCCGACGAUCAGCCACUCUGCCCACUAAAGUGCCCCACCAUGAAACAUUCUGGAGUUGGCCAUCCCAAAUUUCAUCGGUCCAUAGACACAAGCACAGAGCAAGAAACAAGGGCCUUAGAUUGGAAUUCUCGGGUGCCAA: 0.688
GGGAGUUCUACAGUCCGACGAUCCACACCAGAGGUUGUAGACCUAUAUCUGGUAUCCAGAACCUGACAGGGAAACAGUUCUUGGUCCCCCUUUUUUGGGGUCAGCAUUUUAAAAAUGCAAAGCCUAUAUGUUGUGGAAUUCUCGGGUGCCAA: 0.389
